Measurements from different studies.
Compare with care: the assays were run in different laboratories. ± marks the error that the study gave.

With `CC(=O)C1=C(C)NC(=O)NC1c1ccc(F)cc1` (stereo not shown) the IC50 was 233 µM (nitric oxide scavenging).
For `Sc1nnc(-c2ccccc2)o1`, the IC50 was 112 ± 2.3 µM (nitric oxide scavenging).
For `C[n+]1cn([C@@H]2O[C@H](COP(=O)(O)OP(=O)([O-])OP(=O)(O)OC[C@H]3O[C@@H](n4cnc5c(=O)[nH]c(N)nc54)[C@H](O)[C@@H]3OC(=O)NCCCCCCN)[C@@H](O)[C@H]2O)c2nc(N)nc(O)c21`, the IC50 was 10.9 ± 1.4 µM (cap-dependent translation; rabbit reticulocyte lysate; 1 h preincubation, with: capped luciferase mRNA).
For `CCCCSc1nnc(-c2cc([N+](=O)[O-])ccc2Cl)o1`, the IC50 was 44.6 ± 1.1 µM (H2O2 scavenging).
For `CC[C@H](C)[C@H](NC(=O)[C@@H]1CSSC[C@H](NC(=O)[C@@H](NC(C)=O)[C@@H](C)CC)C(=O)N[C@@H](C(C)C)C(=O)N[C@@H](Cc2cn(C)c3ccccc23)C(=O)N[C@@H](CCC(N)=O)C(=O)N[C@@H](CC(=O)O)C(=O)N[C@@H](Cc2c[nH]c3ccccc23)C(=O)N(C)CC(=O)N[C@@H](C)C(=O)N[C@@H](Cc2c[nH]cn2)C(=O)N[C@@H](CCCNC(=N)N)C(=O)N1)C(N)=O`, the IC50 was 0.092 µM (complement activation, ELISA, refers to: C3 fragment deposition; human serum; classical pathway).
The IC50 of `NC(=O)COc1ccc2c(=O)c(OCC(N)=O)c(-c3ccc(OCC(N)=O)c(OCC(N)=O)c3)oc2c1` is reported as 33.8 µM (DPPH radical scavenging; methanol; 30 min, with: DPPH 50 µM).
With `CCCCn1cc(C(=O)O)c(=O)c2cc(F)c(Nc3cc(OC)c(OC)c(OC)c3)c(N)c21` the IC50 was 105 ± 8.77 µg/mL (DPPH radical scavenging; 30 min).
`BP(=O)(OP(=O)([O-])OC[C@H]1O[C@@H](n2c[n+](C)c3c(=O)[nH]c(N)nc32)[C@H](O)[C@@H]1O)OP(=O)([O-])OC[C@H]1O[C@@H](n2c[n+](C)c3c(=O)[nH]c(N)nc32)[C@H](O)[C@@H]1O` gave an IC50 of 2.77 µM (cap-dependent translation, inhibitor; rabbit reticulocyte lysate; no pre-incubation; relative to: m7GpppG).
For `CC[C@H]1OC(=O)[C@H](C)C(=O)[C@H](C)[C@@H](O[C@@H]2O[C@H](C)C[C@H](N(C)C)[C@H]2O)[C@](C)(OC)C[C@@H](C)C2=NCCN3C(=O)O[C@@]1(C)[C@H]3[C@H]2C`, the IC50 was 0.52 ± 0.05 µM (translation, luciferase reporter; Escherichia coli S30 extract).
`CC(C)CCCC(C)C1CCC2C3CC=C4CC(OC(=O)CCC(=O)NCCCCCCNC(=O)O[C@H]5[C@@H](O)[C@H](n6cnc7c(=O)[nH]c(N)nc76)O[C@@H]5COP(=O)(O)OP(=O)([O-])OP(=O)(O)OC[C@H]5O[C@@H](n6c[n+](C)c7c(O)nc(N)nc76)[C@H](O)[C@@H]5O)CCC4(C)C3CCC12C` (stereo partly shown) has an IC50 of 26.1 ± 5 µM (cap-dependent translation; rabbit reticulocyte lysate; 1 h preincubation, with: capped luciferase mRNA).
For `C#CCNC(=O)CNC(=O)CNC(=O)CNC(=O)[C@@H]1CCCN1C(=O)[C@H](CCCCN)NC(=O)[C@H](CCCCN)NC(=O)[C@H](CCCCN)NC(=O)[C@H](CCCNC(=N)N)NC(=O)[C@H](CCCCN)NC(=O)[C@@H](NC(=O)CNC(=O)CN)C(C)C`, the IC50 was over 250 µM (translation, luciferase reporter; rabbit reticulocyte lysate).
`CC(=O)C1=C(C)NC(=O)NC1c1cccc(Br)c1` (stereo not shown) has an IC50 of 116 µM (nitric oxide scavenging).
`CC[C@H](C)[C@H](NC(C)=O)C(=O)N[C@H]1CSSC[C@@H](C(=O)N(C)[C@H](C(N)=O)[C@@H](C)CC)NC(=O)[C@H](CCCNC(=N)N)NC(=O)[C@H](Cc2c[nH]cn2)NC(=O)[C@H](C)NC(=O)CN(C)C(=O)[C@H](Cc2c[nH]c3ccccc23)NC(=O)[C@H](CC(=O)O)NC(=O)[C@H](CCC(N)=O)NC(=O)[C@H](Cc2cn(C)c3ccccc23)NC(=O)[C@H](C(C)C)NC1=O` has an IC50 of 0.062 µM (complement activation, ELISA, refers to: C3 fragment deposition; human serum; classical pathway).
`CCCCSc1nnc(-c2ccccc2Cl)o1` has an IC50 of 135 ± 4.4 µM (superoxide scavenging, pyrogallol).
The IC50 of `CC(=O)C1=C(C)NC(=O)NC1c1ccc([N+](=O)[O-])cc1` (stereo not shown) is reported as 265 µM (nitric oxide scavenging).
`CCCCCCCCCCCCCCCCCCCCCCCC(=O)OCC(O)CO` (stereo not shown) gave an IC50 of over 100 µg/mL (oxidative burst, luminol chemiluminescence; human whole blood; with: zymosan).
For `Cn1ccc(-c2cc(Cl)c(Cl)c3[nH]c4c(c23)CN(C(=O)CO)CC4)n1`, IC50 read “inactive” (refers to: CXCL10; mouse whole blood; with: 100 bp dsDNA).
For `CC[C@H](C)[C@H](NC(C)=O)C(=O)N[C@H]1CCSC[C@@H](C(=O)N[C@H](C(N)=O)[C@@H](C)O)NC(=O)[C@H](CCCNC(=N)N)NC(=O)[C@H](Cc2c[nH]cn2)NC(=O)[C@H](C)NC(=O)CNC(=O)[C@H](Cc2c[nH]c3ccccc23)NC(=O)[C@H](CC(=O)O)NC(=O)[C@H](CCC(N)=O)NC(=O)[C@H](Cc2c[nH]c3ccccc23)NC(=O)[C@H](C(C)C)NC1=O`, the IC50 was over 20 µM (classical complement activation, inhibitor, C3b deposition ELISA; normal human plasma; 15 min, plasma 1:80).
The IC50 of `CCCCn1cc(C(=O)O)c(=O)c2cc(F)c(Nc3ccc(OC)cc3)c([N+](=O)[O-])c21` is reported as 30.7 ± 6.1 µg/mL (DPPH radical scavenging; 30 min).
`O=[N+]([O-])c1ccc(Cl)c(-c2nnc(S)o2)c1` has an IC50 of 46.6 ± 1.5 µM (H2O2 scavenging).
For `COc1ccc(-c2c(O)oc3c(CC=C(C)C)c(O)cc(O)c3c2=O)cc1`, the IC50 was 15.7 ± 0.335 µg/mL (DPPH radical scavenging; 30 min).
With `CC(=O)C1=C(C)NC(=O)NC1c1ccccc1` (stereo not shown) the IC50 was 44.5 µM (nitric oxide scavenging).
With `CCCCCCCCCc1nc2cc(Cl)ccc2c(=O)n1CCCN` the IC50 was 173 µM (haemolysis; rabbit erythrocytes; 60 min; relative to: Triton X-100).
The IC50 of `CC(=O)[O-].[Cu+2].[O-]c1ccc(Br)cc1C=NCCN1CCOCC1` is reported as 160 µM (DPPH radical scavenging).
`Sc1nnc(-c2ccccc2Cl)o1` has an IC50 of 105 ± 3.4 µM (H2O2 scavenging).
For `NS(=O)(=O)c1ccc(/N=N/c2ccc(O)c(/C=N/c3cc(Cl)ccc3O)c2)cc1`, the IC50 was 13.7 ± 1.56 µM (DPPH radical scavenging; 60 min).
`CC(C)(C)c1ccc(-c2nnc(S)o2)cc1` gave an IC50 of 117 ± 3.3 µM (H2O2 scavenging).
With `CC(=O)c1cnc(N)nc1N1CC[C@H]1c1nn2ccc(Cl)c2c(=O)n1-c1ccccc1` the IC50 was 0.073 µM (Th17 differentiation, refers to: IL-22; rheumatoid arthritis patient whole blood).
For `CC(C)(C)OC(=O)C(NCc1ccc(CCC(=O)NO)nc1)C1CCCCC1` (stereo not shown), the IC50 was 1.66 µM (refers to: TNF-alpha; human whole blood; overnight, with: LPS 200 ng/mL).
`CO[C@@H]1[C@H](O)[C@@H](COP(=O)(O)OP(=O)([S-])OP(=O)(S)OC[C@H]2O[C@@H](n3cnc4c(=O)[nH]c(N)nc43)[C@H](O)[C@@H]2O)O[C@H]1n1c[n+](C)c2c(O)nc(N)nc21` (mixture of isomers) gave an IC50 of 2.3 ± 0.2 µM (cap-dependent translation, inhibitor; rabbit reticulocyte lysate).
`O=c1cc(-c2ccc(O)c(O)c2)oc2cc(O[C@@H]3O[C@H](CO)[C@@H](O)[C@H](O)[C@H]3O)cc(O)c12` gave an IC50 of 46.9 ± 0.83 µg/mL (ferric reducing antioxidant power, FRAP).
`NS(=O)(=O)c1ccc(/N=N/c2ccc(O)c(C=O)c2)cc1` has an IC50 of 17 ± 0.43 µM (DPPH radical scavenging; 60 min).
With `CC(=O)C1=C(C)NC(=O)NC1c1cccc(Cl)c1` (stereo not shown) the IC50 was 280 µM (ferric reducing power, FRAP).
`C#CCCCC(=O)NCC(=O)NCC(=O)NCC(=O)N1CCC[C@H]1C(=O)N[C@@H](CCCCN)C(=O)N[C@@H](CCCCN)C(=O)N[C@@H](CCCCN)C(=O)N[C@@H](CCCNC(=N)N)C(=O)N[C@@H](CCCCN)C(=O)N[C@H](C(=O)NCC(=O)NCC(N)=O)C(C)C` has an IC50 of over 250 µM (translation, luciferase reporter; Escherichia coli S30 extract).
With `CC(=O)C1=C(C)NC(=O)NC1c1ccc(Cl)cc1` (stereo not shown) the IC50 was 144 µM (ferric reducing power, FRAP).
`CCCCSc1nnc(-c2cc(Cl)ccc2Cl)o1` has an IC50 of 50.3 ± 3.2 µM (H2O2 scavenging).
`COc1cccc(C2NC(=O)NC(C)=C2C(C)=O)c1` (stereo not shown) has an IC50 of 217 µM (ferric reducing power, FRAP).
The IC50 of `CCCCn1cc(C(=O)O)c(=O)c2cc(F)c3c(nnn3-c3cccc(OC)c3)c21` is reported as 737 ± 102 µg/mL (DPPH radical scavenging; 30 min).
The IC50 of `CCCCSc1nnc(-c2ccc(C(C)(C)C)cc2)o1` is reported as 76.5 ± 1.1 µM (nitric oxide scavenging).
`CC(=O)C1=C(C)NC(=O)NC1c1ccc(C)cc1` (stereo not shown) has an IC50 of 40 µM (ferric reducing power, FRAP).
